Results collected from several papers.
Compare with care: the assays were run in different laboratories. Values joined by “and” are separate records of one study, mostly repeats; a detail may differ. ± gives the spread as reported.

| Structure (SMILES) | tested on | test | system | conditions | how to read | quantity | value |
| --- | --- | --- | --- | --- | --- | --- | --- |
| CCCCCCNC(=O)n1cc(F)c(=O)[nH]c1=O | SW-403 | LC-MS, measured: Cer(d18:1/14:0) |  | 0.1 µM |  | ceramide level | 3.59 ± 0.54 pmol/mg protein |
| COC(=O)[C@]12CCC(C)(C)C[C@H]1[C@H]1C(=O)C=C3[C@@]4(C)C=C(C#N)C(=O)C(C)(C)[C@@H]4CC[C@@]3(C)[C@]1(C)CC2 | HepG2 | high content imaging, measured: nuclear size |  | 24 h, distribution mode 1 |  | point of departure | 0.741 µM |
| CCn1c(-c2nonc2N)nc2cncc(CNC3CCNCC3)c21 | SK-OV-3 | ATP |  | 10 µM, 4 days, 3D gellan gum culture | relative to: untreated | relative cell number | 41.2% |
| CN(C)CC(=O)O |  | binding, equilibrium dialysis LC-MS |  | 5 µM, thermostabilized A2AR-BRIL construct | relative to: no-protein control, direction not given | z-scored log2 fold change | 0.191 |
| Cc1nc(NC(=O)N2CCC[C@H]2C(N)=O)sc1-c1ccnc(C(C)(C)C(F)(F)F)c1 | SK-OV-3 | resazurin growth rate inhibition |  | 72 h |  | GR50 | > 5 µM |
| CS(=O)(=O)CCNCc1ccc(-c2ccc3ncnc(Nc4ccc(OCc5cccc(F)c5)c(Cl)c4)c3c2)o1 | iCell Cardiomyocytes (hiPSC-derived) | xCELLigence Cardio impedance |  | concentration not given, 2 h | relative to: control | beat amplitude | 103% |
| Cn1cc(-c2ccc(-c3cncc(Cl)c3N3CCC4(CCNC4=O)CC3)cc2)cn1 | COLO 205 | gene expression, microarray, measured: SCUBE1 mRNA |  | concentration not given, 2 h | relative to: untreated cells | log2 fold change | -4.25 |
| Cc1ccc(Nc2nccc(N(C)c3ccc4c(C)n(C)nc4c3)n2)cc1S(N)(=O)=O | iCell Cardiomyocytes (hiPSC-derived) | CellTiter-Glo |  | concentration not given, 24 h | relative to: control | ATP level | 104% |
| Nc1cccc2c1CN(C1CCC(=O)NC1=O)C2=O (stereo not drawn) | bone marrow CD138+ myeloma cells | XTT |  | 3 µM, phenol red-free RPMI |  | viability | 5% |
| COc1ccc2c(N(C)c3ccc(/C(C)=N/OCCN)cc3)c3c(Cl)coc3nc2c1 | LNCaP C-81 | immunoblot |  | 1 µM, 72 h, steroid-reduced medium |  | secreted PSA | increased |
| c1ccc2[nH]ccc2c1 | HCT-8 | RNA-seq, measured: SLC6A12 |  | concentration not given |  | mRNA level, LS mean | 2.4 counts per million |
| Cc1ccc(NC(=O)c2ccc(CN3CCN(C)CC3)cc2)cc1Nc1nccc(-c2cccnc2)n1 | iCell Cardiomyocytes (hiPSC-derived) | xCELLigence Cardio impedance |  | concentration not given, 2 h | relative to: control | beat amplitude | 100% |
| C=CC1=C(C)c2cc3[n-]c(cc4nc(cc5[n-]c(cc1n2)c(C)c5C=C)C(C)=C4CCC(=O)O)c(CCC(=O)O)c3C.[Zn+2] | SH-SY5Y | RNA-seq, measured: CCN1 mRNA |  | 5 µM, 5 h | relative to: untreated cells | fold change | 1.68 |
| COc1cc2c(cc1O)[C@@H](Cc1ccc(O)c(Oc3cc4c(cc3OC)CCN(C)[C@@H]4Cc3ccc(O)cc3)c1)N(C)CC2 | 3T3-L1 | adipocyte lipid accumulation, Nile Red staining |  | 20 µM |  | inhibition | 37.4 ± 0.5% |
| CC1(COc2ccc(CC3SC(=O)NC3=O)cc2)CCCCC1 (stereo not drawn) | HepaRG | ROS-Glo |  |  |  | maximal ROS response | -82.6 ± 15.6% |
| COc1cnc2cccc(N3CCc4c(cc(Cn5ccnc5C)cc4-c4cn(C)nc4C(F)(F)F)C3=O)c2c1 | Detroit 562 | cell growth |  | 120 h |  | EC50 | > 30 µM |
| O=C(/C=C/C=C/C=C/C1CCCCC1)NC1=C[C@@](O)(/C=C/C=C/C=C/C(=O)NC2=C(O)CCC2=O)[C@@H]2O[C@@H]2C1=O | HCC1500 | cell growth, CellTiter-Glo |  | 78 h |  | GI50 | 9.77 µM |
| O=C(C[C@@H](C(F)F)n1ccc(F)n1)N1CCC(O)(Cn2cnc3c(cnn3-c3ccc(F)cc3)c2=O)CC1 | CHP-212 parental (wild-type USP7) | annexin V-PI flow cytometry |  | 0.1 µM, 48 h |  | viable cells (annexin V-/PI-) | 74.7% and 75.7% and 74.2% |
| CC(C)C[C@@H](C=O)NC(=O)[C@H](CC(C)C)NC(=O)[C@H](CC(C)C)NC(=O)OCc1ccccc1 | ARPE-19 HiBiT fibulin-3 | HiBiT luminescence |  | 5 µM |  | fibulin-3 level | -69.5% |
| CCn1cc(-c2cc(Cn3ccoc3=N)cc3c2CCN([C@@H](C)c2cc(OC)ccn2)C3=O)c(C(F)(F)F)n1 | Farage | cell growth |  | 120 h |  | EC50 | 3.53 µM |
| CC[C@H](C)[C@H](NC(=O)[C@H](CC(C)C)NC(=O)[C@@H](NC(=O)[C@@H]1CCCN1C(=O)[C@@H](NC(=O)[C@@H]1CCCN1C(=O)[C@@H](NC(=O)[C@H](CO)NC(=O)[C@H](Cc1c[nH]cn1)NC(=O)[C@@H]1CCCN1C(=O)[C@H](CCCNC(=N)N)NC(=O)[C@H](CCCCN)NC(=O)[C@H](CCCNC(=N)N)NC(=O)[C@H](CCCNC(=N)N)NC(=O)[C@H](CCCNC(=N)N)NC(=O)[C@@H]1CCCN1C(=O)[C@H](CCCNC(=N)N)NC(=O)[C@H](CC(C)C)NC(=O)[C@H](CC(C)C)NC(=O)[C@H](Cc1c[nH]cn1)NC(=O)[C@H](Cc1c[nH]cn1)NC(=O)CNC(=O)[C@@H](N)CSSC[C@H](N)C(=O)NCC(=O)N[C@@H](Cc1c[nH]cn1)C(=O)N[C@@H](Cc1c[nH]cn1)C(=O)N[C@@H](CC(C)C)C(=O)N[C@@H](CC(C)C)C(=O)N[C@@H](CCCNC(=N)N)C(=O)N1CCC[C@H]1C(=O)N[C@@H](CCCNC(=N)N)C(=O)N[C@@H](CCCNC(=N)N)C(=O)N[C@@H](CCCNC(=N)N)C(=O)N[C@@H](CCCCN)C(=O)N[C@@H](CCCNC(=N)N)C(=O)N1CCC[C@H]1C(=O)N[C@@H](Cc1c[nH]cn1)C(=O)N[C@@H](CO)C(=O)N[C@H](C(=O)N1CCC[C@H]1C(=O)N[C@H](C(=O)N1CCC[C@H]1C(=O)N[C@H](C(=O)N[C@@H](CC(C)C)C(=O)N[C@H](C(=O)N[C@@H](Cc1ccccc1)C(=O)N[C@@H](CCCNC(=N)N)C(=O)N[C@@H](CO)C(=O)N1CCC[C@H]1C(=O)O)[C@@H](C)CC)[C@@H](C)CC)[C@@H](C)O)[C@@H](C)CC)[C@@H](C)CC)[C@@H](C)O)[C@@H](C)CC)C(=O)N[C@@H](Cc1ccccc1)C(=O)N[C@@H](CCCNC(=N)N)C(=O)N[C@@H](CO)C(=O)N1CCC[C@H]1C(=O)O | MDA-MB-468, without PBMC |  |  | 10 µg/mL |  | tumour cell density | no effect |
| Cc1cc2c(F)c(Oc3ncnn4cc(OC[C@@H](C)O)c(C)c34)ccc2[nH]1 | iCell Cardiomyocytes (hiPSC-derived) | CellTiter-Glo |  | concentration not given, 24 h | relative to: control | ATP level | 105% |
| C=CC(=O)N1CCC([C@@H]2CCNc3c(C(N)=O)c(-c4ccc(Oc5ccccc5)cc4)nn32)CC1 | Ramos | calcium flux, FLIPR |  | 4 h preincubation |  | maximum inhibition | 80.7% |

| Structure (SMILES) | tested on | test | system | conditions | how to read | quantity | value |
| --- | --- | --- | --- | --- | --- | --- | --- |
| C[C@H]1[C@@H](O)O[C@@H]2O[C@@]3(C)CC[C@H]4[C@H](C)CC[C@@H]1[C@@]24OO3 | THP-1 | annexin V/PI flow cytometry, measured: annexin V+/PI+ |  | 0.4 µM, 24 h |  | late apoptotic cells | 1.4% |
| O=C(COc1ccc(Cl)cc1)NC1CCC(NC(=O)COc2ccc(Cl)cc2)CC1 (stereo not drawn) | Mfn2-deficient and wild-type MEFs | PGL-induced mitochondrial distribution |  | 200 nM, 6 h, added: PGL |  | mitochondrial-nuclear distance | inhibited |
| COc1cccc(-c2cccc(Cc3ncnc4cc(OC)c(OC)cc34)c2)c1 | A549 | mitochondrial oxygen consumption, Seahorse XF96 |  | 10 µM |  | inhibition | 58% |
| Cc1cccc(-c2[nH]c(CNc3ccccc3F)nc2-c2ccc3ncnn3c2)n1 | MM1.S pomalidomide-resistant | XTT |  | 5 µM |  | viability | 13% and 12% and 16% |
| Cc1nc2ccc(OCc3ccc(C(F)(F)F)cc3)cc2[nH]1 | sample A patient iPSC NPCs | cell protection, MTS |  | up to 100 µM, 24 h |  | Emax | 74% |
| CC(C)NCC(O)c1ccc(O)c(O)c1 (stereo not drawn) | mouse ventricular cardiomyocytes |  |  | dose not given, 0.207 s |  | sarcomere length | 1.75 µm |
| C[C@H]1CN(C2COC2)CCN1c1ccc(Nc2cc(-c3ccnc(N4CCn5c(cc6c5CC(C)(C)C6)C4=O)c3CO)cn(C)c2=O)nc1 | Ramos | calcium flux, FLIPR |  | 1 h preincubation |  | maximum inhibition | 97.4% |
| OC1CCN(c2ccc(/C=N/NC(=S)NCc3ccc(Cl)cc3)cc2)CC1 | BEAS-2B and A549 | MTT |  |  | relative to: IC50 BEAS-2B over IC50 A549 | selectivity ratio | 9.2 |
| Nc1ncnc2c1ncn2[C@@H]1O[C@H](CO)[C@@H](O)[C@H]1O | activated human T cells |  |  | 1 µM | higher = more proliferation | T cell proliferation | 68.9 a.u. and 68.6 a.u. and 67.8 a.u. |
| CC#CC(=O)N1CCC[C@H]1c1nc(-c2ccc(C(=O)Nc3ccccn3)cc2)c2c(N)nccn12 | Ramos | calcium flux, FLIPR |  | 1 h preincubation |  | maximum inhibition | 87.2% |
| CC(C)(c1ccc(O)cc1)c1ccc(O)cc1 | HepG2 spheroids | Hoechst flow cytometry |  | 1 µM, 24 h |  | G1 phase cells | 71.2 ± 3.6% |
| CCn1cc(-c2cc(Cn3ccnc3)cc3c2CCN([C@H](c2cc(OC)ccn2)C2CC2)C3=O)c(C(F)(F)F)n1 | Detroit 562 | cell growth |  | 120 h |  | EC50 | > 30 µM |
| CCCCc1nc(Cl)c(CO)n1Cc1ccc(-c2ccccc2-c2nn[nH]n2)cc1 | human PBMC | RNA-seq, measured: TGM2 mRNA |  | 10 µg/mL, 24 h | relative to: untreated control | log2 fold change | 1.75 |
| C=CC(=O)N1CCC[C@@H](c2ccc(C(N)=O)c3[nH]ccc23)C1 | Ramos | calcium flux, FLIPR |  | 2 h preincubation |  | maximum inhibition | 34.4% |
| Cc1c[nH]c(=O)[nH]c1=O |  | binding, equilibrium dialysis LC-MS |  | 5 µM, thermostabilized A2AR-BRIL construct | relative to: no-protein control, direction not given | z-scored log2 fold change | 0.545 |
| COc1cc(Nc2c(C#N)cnc3cc(OCCCN4CCN(C)CC4)c(OC)cc23)c(Cl)cc1Cl | iCell Cardiomyocytes (hiPSC-derived) | xCELLigence Cardio impedance |  | concentration not given, 2 h | relative to: control | beat amplitude | 98.4% |
| O=C(O)c1ccc(-c2c[nH]c3ncc(-c4ccccc4)cc23)cc1C1CCCC1 | SK-OV-3 | ATP | 2D monolayer culture | 0.1 µM, 4 days | relative to: untreated | relative cell number | 109% |
| C[C@H]1Oc2cc(cnc2N)-c2c(nn(C)c2C#N)CN(C)C(=O)c2ccc(F)cc21 | KARPAS-299 (NPM1-ALK) | cell viability |  |  |  | IC50 | 0.00327 µM |
| Cc1cc(Nc2ncc(Cl)c(Nc3ccccc3S(=O)(=O)C(C)C)n2)c(OC(C)C)cc1C1CCNCC1 | CLB-BAR | phosphoproteomics LC-MS/MS, measured: KIF26B phosphorylation |  | 200 nM, 60 min | relative to: untreated | log2 fold change | -2.63 |
| C[C@@H]1CN(C(=O)c2ccc(NC(=O)c3cc(O[C@H](C)c4c(Cl)ccc(F)c4Cl)c(N)nn3)cc2)C[C@H](C)N1 | KARPAS-299 (NPM1-ALK) | cell viability |  |  |  | IC50 | 0.0105 µM |
| Clc1ccc(C2(c3ccc(-c4cn[nH]c4)cc3)CCNCC2)cc1 | SK-OV-3 | ATP | 3D spheroid culture | 10 µM, 4 days, added: GA-017 10 µM | relative to: DMSO | relative cell number | 138% |
| CN1CCN(c2ccc3[nH]c(-c4ccc5[nH]c(-c6ccc(C(F)(F)F)cc6)nc5c4)nc3c2)CC1 | NCI/ADR-RES | cell growth, NCI-60 SRB |  | 10 µM, 48 h |  | growth percent | 102% |

Some of these lines once more:
| Structure (SMILES) | tested on | test | system | conditions | how to read | quantity | value |
| --- | --- | --- | --- | --- | --- | --- | --- |
| COc1cccc(-c2cccc(Cc3ncnc4cc(OC)c(OC)cc34)c2)c1 | A549 | mitochondrial oxygen consumption, Seahorse XF96 |  | 10 µM |  | inhibition | 58% |
| Cc1cccc(-c2[nH]c(CNc3ccccc3F)nc2-c2ccc3ncnn3c2)n1 | MM1.S pomalidomide-resistant | XTT |  | 5 µM |  | viability | 13% and 12% and 16% |
| Cc1nc2ccc(OCc3ccc(C(F)(F)F)cc3)cc2[nH]1 | sample A patient iPSC NPCs | cell protection, MTS |  | up to 100 µM, 24 h |  | Emax | 74% |
